Measured values from different studies.
Organism: Leishmania donovani

Structure (SMILES)	assay	system	setting	IC50
C[C@@H]1[C@H](O)[C@@H](C)/C=C/C=C/C=C/C=C/C=C/C=C/C=C/[C@H](O[C@@H]2O[C@H](C)[C@@H](O)[C@H](N)[C@@H]2O)C[C@@H]2O[C@](O)(C[C@@H](O)C[C@@H](O)[C@H](O)CC[C@@H](O)C[C@@H](O)CC(=O)O[C@H]1C)C[C@H](O)[C@H]2C(=O)O	–	Bob promastigotes	120 h	0.03 µM
CCCCCCCCCCCCCCCCOP(=O)([O-])OCC[N+](C)(C)C	parasite growth, SYBR Green	RAW264.7	intracellular, amastigote	11.8 µM
COc1ccc2[nH]c3cc(OC)c(C=O)cc3c2c1	viability	axenic amastigotes	72 h	> 40 µg/mL
C#CCn1cc(C=O)c2cc([N+](=O)[O-])ccc21	parasite growth, resazurin	THP-1	72 h, intracellular, amastigote	> 10 µM
Cc1nn(Cc2ccc(O)c(C=O)c2)c(=O)[nH]c1=O	parasite growth, SYBR Green	RAW264.7	intracellular, amastigote	30 µM
O=C1NC(=S)S/C1=C\c1c[nH]c2ccc([N+](=O)[O-])cc12	parasite growth, resazurin	THP-1	72 h, intracellular, amastigote	> 10 µM
C[C@@H]1[C@H](O)[C@@H](C)/C=C/C=C/C=C/C=C/C=C/C=C/C=C/[C@H](O[C@@H]2O[C@H](C)[C@@H](O)[C@H](N)[C@@H]2O)C[C@@H]2O[C@](O)(C[C@@H](O)C[C@@H](O)[C@H](O)CC[C@@H](O)C[C@@H](O)CC(=O)O[C@H]1C)C[C@H](O)[C@H]2C(=O)O	parasite growth	THP-1	intracellular, amastigote	0.272 µM
O=C1CSC(=S)N1/N=C/c1cn(Cc2ccc(F)cc2)c2ccc([N+](=O)[O-])cc12	parasite growth, resazurin	THP-1	72 h, intracellular, amastigote	> 10 µM
C[C@@H]1N[C@H](CCCCCCCCCCc2cc(CCCCCCCCCC[C@H]3CC[C@@H](O)[C@@H](C)N3)c[n+]3c2CCC3)CC[C@H]1O	parasite growth, resazurin	–	72 h, amastigote	2.14 µg/mL
O=Cc1cc(Cn2ccc(=O)[nH]c2=O)ccc1O	parasite growth, SYBR Green	–	amastigote	> 100 µM
C[C@@H]1[C@H](O)[C@@H](C)/C=C/C=C/C=C/C=C/C=C/C=C/C=C/[C@H](O[C@@H]2O[C@H](C)[C@@H](O)[C@H](N)[C@@H]2O)C[C@@H]2O[C@](O)(C[C@@H](O)C[C@@H](O)[C@H](O)CC[C@@H](O)C[C@@H](O)CC(=O)O[C@H]1C)C[C@H](O)[C@H]2C(=O)O	parasite growth, resazurin	–	72 h, promastigote	0.09 µg/mL
N=C(N)c1ccc(OCCCCCOc2ccc(C(=N)N)cc2)cc1	viability, Alamar blue	promastigote	72 h, 26 °C	2.9 µM
C[C@@H]1[C@H](O)[C@@H](C)/C=C/C=C/C=C/C=C/C=C/C=C/C=C/[C@H](O[C@@H]2O[C@H](C)[C@@H](O)[C@H](N)[C@@H]2O)C[C@@H]2O[C@](O)(C[C@@H](O)C[C@@H](O)[C@H](O)CC[C@@H](O)C[C@@H](O)CC(=O)O[C@H]1C)C[C@H](O)[C@H]2C(=O)O	growth	MHOM/SD/00/1S axenic amastigotes	in dark	0.08 to 0.13 µM
O=C1CSC(=S)N1/N=C/c1cn(Cc2ccccc2)c2ccc([N+](=O)[O-])cc12	parasite growth, resazurin	THP-1	72 h, intracellular, amastigote	> 10 µM
C[C@@H]1[C@H](O)[C@@H](C)/C=C/C=C/C=C/C=C/C=C/C=C/C=C/[C@H](O[C@@H]2O[C@H](C)[C@@H](O)[C@H](N)[C@@H]2O)C[C@@H]2O[C@](O)(C[C@@H](O)C[C@@H](O)[C@H](O)CC[C@@H](O)C[C@@H](O)CC(=O)O[C@H]1C)C[C@H](O)[C@H]2C(=O)O	–	macrophages, intracellular amastigotes	72 h	3.07 µM
O=C1NC(=S)S/C1=C\c1cn(Cc2ccccc2)c2ccc([N+](=O)[O-])cc12	parasite growth, resazurin	THP-1	72 h, intracellular, amastigote	3.01 µM
N=C(N)c1ccc(OCCCCCOc2ccc(C(=N)N)cc2)cc1	Alamar Blue	promastigotes	72 h, 26 °C	0.8 µg/mL
CCCCCCCCCCCCCCCCOP(=O)([O-])OCC[N+](C)(C)C	parasite growth	mouse Macrophage	intracellular, amastigote	4.91 µM
O=C1NC(=S)S/C1=C\c1cn(Cc2ccc(F)cc2)c2ccc([N+](=O)[O-])cc12	parasite growth, resazurin	THP-1	24 h, intracellular, amastigote	> 10 µM
O=Cc1cc(Cn2cc(F)c(=O)[nH]c2=O)ccc1O	parasite growth, SYBR Green	–	amastigote	> 100 µM
O=C1CSC(=S)N1/N=C/c1cn(Cc2cccc(Cl)c2)c2ccc([N+](=O)[O-])cc12	parasite growth, resazurin	THP-1	72 h, intracellular, amastigote	> 10 µM
COc1ccc2c(c1)c1cc(C=O)c(OC)cc1n2C	viability	promastigotes	72 h, 26 °C	> 40 µg/mL

A few entries again:
Structure (SMILES)	assay	system	setting	IC50
C[C@@H]1[C@H](O)[C@@H](C)/C=C/C=C/C=C/C=C/C=C/C=C/C=C/[C@H](O[C@@H]2O[C@H](C)[C@@H](O)[C@H](N)[C@@H]2O)C[C@@H]2O[C@](O)(C[C@@H](O)C[C@@H](O)[C@H](O)CC[C@@H](O)C[C@@H](O)CC(=O)O[C@H]1C)C[C@H](O)[C@H]2C(=O)O	parasite growth	THP-1	intracellular, amastigote	0.272 µM
O=Cc1cc(Cn2cc(F)c(=O)[nH]c2=O)ccc1O	parasite growth, SYBR Green	–	amastigote	> 100 µM
